Published values of several laboratories.
Each line is one published result; not all experiments were run side by side. Values after ≈ are worked out from the molar mass of the structure shown.

CC(CCC(=O)[O-])C1CCC2C3CCC4CC(O)CCC4(C)C3CC(O)C12C.C[N+](C)(C)CC(O)CC(=O)O (centres unmarked)  inhibition zone (Salmonella enterica Typhimurium; TISTR 1470; 1 mg per disc, 18 to 24 h, 37 °C, 6 mm disc): inactive
COc1ccc2nc(C)cc(OCC(=O)Nc3ccccc3OC)c2c1  MIC (Streptococcus pyogenes; microbial growth, broth dilution; 1308007P): 16 µM (≈ 5.64 µg/mL)
Cc1cc(Oc2nc(N3CC[C@@H](c4ccncc4)C3)ncc2F)[nH]n1  IC50 (Mycobacterium tuberculosis; THP-1, H37Rv non-replicating; 96 h, end of hypoxic incubation): 30 µM
COC(=O)C1NC(=O)C2NC(=O)C(NC(=O)C3NC(=O)C4NC(=O)C(NC(=O)C(Nc5c(NCC(=O)NCC(=O)NCC(=O)O)c(=O)c5=O)c5ccc(O)c(c5)Oc5cc4cc(O)c5C)C(O)c4ccc(cc4)Oc4cc3cc(c4O)Oc3ccc(cc3)C2O)c2ccc(O)c(c2)-c2c(O)cc(O)cc21 (centres unmarked)  EC50 (influenza virus; viral replication): 5000 nM
CC(CCC(=O)[O-])C1CCC2C3CCC4CC(O)CCC4(C)C3CCC12C.C[N+](C)(C)CC(O)CC(=O)O (centres unmarked)  inhibition zone (Salmonella enterica Typhimurium; TISTR 1470; 1 mg per disc, 18 to 24 h, 37 °C, 6 mm disc): inactive
COC(=O)[C@]1(C)CCC[C@]2(C)[C@H]3C[C@H]4C(C(C)C)=C[C@]3(CC[C@H]21)[C@H]1[C@@H]4[C@@H](OCC#CCN2CCCC2)CC[C@@H]1O  relative antiviral activity (influenza A virus A/Puerto Rico/8/34 (H1N1); MDCK; concentration not given; relative to: compound over oseltamivir): 25
COC(=O)C1NC(=O)C2NC(=O)C(NC(=O)C3NC(=O)C4NC(=O)C(NC(=O)C(Nc5c(Nc6cccc7ccccc67)c(=O)c5=O)c5ccc(O)c(c5)Oc5cc4cc(O)c5C)C(O)c4ccc(cc4)Oc4cc3cc(c4O)Oc3ccc(cc3)C2O)c2ccc(O)c(c2)-c2c(O)cc(O)cc21 (centres unmarked)  EC50 (influenza virus; viral replication): 1400 nM
CS(=O)(=O)c1ccc(/C=N/NC(=O)Cn2ccc(=O)c3ccccc32)cc1  inhibition (Fusarium graminearum; microbial growth; 50 µg/mL): 7.1%
COc1ccc2nc(C)cc(OCC(=O)Nc3cc(C)cc(C)c3)c2c1  MIC (Streptococcus pyogenes; microbial growth, broth dilution; 1308007P): 16 µM (≈ 5.61 µg/mL)
CC(CCC(=O)[O-])C1CCC2C3C(O)CC4CC(O)CCC4(C)C3CCC12C.C[N+](C)(C)CC(O)CC(=O)O (centres unmarked)  inhibition zone (Salmonella enterica Typhimurium; TISTR 1470; 1 mg per disc, 18 to 24 h, 37 °C, 6 mm disc): inactive
CC(=O)[O-].O.O.O.O.[Co+2].[O-]c1ccc(Br)cc1C=NCCN1CCOCC1  inhibition zone diameter (Salmonella enterica; serovar Typhi; 20 µL of 100 µM per disc): 13 mm
Cc1cccc(-c2nc(Nc3ccncn3)c3c(C)csc3n2)n1  MIC (Streptococcus pyogenes; microbial growth, broth dilution; 1308007P): 16 µM (≈ 5.35 µg/mL)
COc1cc(O)cc(O)c1C(=O)/C=C/c1ccccc1  IC50 (VSV-pseudotyped HIV-1; viral replication; MT-2; 48 h): 71.5 µM
O=[N+]([O-])NC1=NCCN1Cc1ccc(Cl)nc1  resistance ratio (Trialeurodes vaporariorum; leaf-dip assay, adults; 72 h; relative to: LC50 resistant over susceptible strain): 7
CNc1nc(SC)nc2ccccc12  MIC (Streptococcus pyogenes; microbial growth, broth dilution; 1308007P): > 64 µM
CC[C@H](C)[C@H](NC(=O)[C@H](CC(C)C)NC(=O)CNC(=O)[C@H](CCCCN)NC(=O)[C@@H](NC(=O)[C@@H](NC(=O)[C@H](CC(N)=O)NC(=O)[C@H](Cc1c[nH]c2ccccc12)NC(=O)[C@@H](NC(=O)[C@H](CCC(=O)O)NC(=O)CNC(=O)[C@H](Cc1c[nH]c2ccccc12)NC(=O)[C@@H](N)CC(C)C)[C@@H](C)CC)[C@@H](C)O)C(C)C)C(N)=O  IC50 (Herpes simplex virus 1; virus inactivation, plaque reduction; Vero, F; 37 °C): 2.48 µg/mL
CCCCCCCCCC(=O)OCC1OC(n2cc(C)c(=O)[nH]c2=O)CC1N(C)C (centres unmarked)  EC50 (influenza B virus; viral cytopathic effect; MDCK): > 230 nM

For quick reference, copied from above:
COC(=O)C1NC(=O)C2NC(=O)C(NC(=O)C3NC(=O)C4NC(=O)C(NC(=O)C(Nc5c(Nc6cccc7ccccc67)c(=O)c5=O)c5ccc(O)c(c5)Oc5cc4cc(O)c5C)C(O)c4ccc(cc4)Oc4cc3cc(c4O)Oc3ccc(cc3)C2O)c2ccc(O)c(c2)-c2c(O)cc(O)cc21 (centres unmarked)  EC50 (influenza virus; viral replication): 1400 nM
